# Experimental data gathered from unrelated publications.
# Every numbered part comes from another study and shows a few of its results, in no order. “And” joins repeats or separate records; there may be more than shown.
# UniProt P46734, sequence (whole entry, looked up): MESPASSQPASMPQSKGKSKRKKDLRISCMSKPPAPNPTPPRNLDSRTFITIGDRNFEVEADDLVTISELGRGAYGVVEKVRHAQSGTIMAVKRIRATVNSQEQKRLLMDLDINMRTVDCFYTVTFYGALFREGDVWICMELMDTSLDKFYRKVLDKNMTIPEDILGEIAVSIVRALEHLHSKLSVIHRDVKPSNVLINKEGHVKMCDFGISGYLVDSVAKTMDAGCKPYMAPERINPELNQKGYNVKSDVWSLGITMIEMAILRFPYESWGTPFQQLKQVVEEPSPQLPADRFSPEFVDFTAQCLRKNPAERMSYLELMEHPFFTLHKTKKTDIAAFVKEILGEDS
# UniProt P51451, sequence (whole entry, looked up): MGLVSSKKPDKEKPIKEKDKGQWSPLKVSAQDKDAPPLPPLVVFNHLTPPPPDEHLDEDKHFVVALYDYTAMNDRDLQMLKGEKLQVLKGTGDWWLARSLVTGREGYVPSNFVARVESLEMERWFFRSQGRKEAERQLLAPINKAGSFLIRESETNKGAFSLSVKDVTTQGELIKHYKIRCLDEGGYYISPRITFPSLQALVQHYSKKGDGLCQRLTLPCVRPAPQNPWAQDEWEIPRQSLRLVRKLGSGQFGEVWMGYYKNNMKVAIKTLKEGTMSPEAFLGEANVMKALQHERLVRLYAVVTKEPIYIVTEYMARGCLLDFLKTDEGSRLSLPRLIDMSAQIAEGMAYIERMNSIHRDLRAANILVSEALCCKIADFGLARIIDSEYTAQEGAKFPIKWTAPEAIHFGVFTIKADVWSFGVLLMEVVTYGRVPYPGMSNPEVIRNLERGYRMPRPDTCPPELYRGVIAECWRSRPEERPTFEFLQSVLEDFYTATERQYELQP
# UniProt P45985, sequence (whole entry, looked up): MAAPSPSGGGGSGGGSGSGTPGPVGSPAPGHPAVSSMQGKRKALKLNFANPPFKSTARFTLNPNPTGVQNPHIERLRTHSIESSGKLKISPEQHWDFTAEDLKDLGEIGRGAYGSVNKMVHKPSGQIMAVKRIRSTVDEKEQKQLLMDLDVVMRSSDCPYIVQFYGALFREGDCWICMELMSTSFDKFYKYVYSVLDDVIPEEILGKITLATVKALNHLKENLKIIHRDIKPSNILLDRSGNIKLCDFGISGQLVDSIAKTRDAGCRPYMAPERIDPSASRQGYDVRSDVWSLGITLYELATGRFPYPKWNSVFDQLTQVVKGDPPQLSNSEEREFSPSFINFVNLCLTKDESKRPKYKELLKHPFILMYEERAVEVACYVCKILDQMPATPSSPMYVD

# Set 1 — effect on: cell-free assay; technique: competition with immobilised ligand; tested at: 1 µM
# SMILES: COc1ccc2c(c1)O[C@@H](c1ccc(OC)c(OC)c1)C[C@H]2NC(=O)C1(c2ccc3c(c2)OC(F)(F)O3)CC1
target,remaining binding
"MET (Homo sapiens, UniProt P08581)",100%
"BLK (Homo sapiens, UniProt P51451)",91%
"MAP3K5 (Homo sapiens, UniProt Q99683)",94%
"MAP2K3 (Homo sapiens, UniProt P46734)",78%
"TEK (Homo sapiens, UniProt Q02763)",92%
"NEK1 (Homo sapiens, UniProt Q96PY6)",100%
"MAP3K7 (Homo sapiens, UniProt O43318)",100%
"MARK1 (Homo sapiens, UniProt Q9P0L2)",100%
"MAP2K4 (Homo sapiens, UniProt P45985)",92%

# Set 2 — effect on: enzyme activity; mode: inhibitor; tested at: 0.5 µM; relative to: control
# Target: Protein kinase C theta type (PRKCQ, Homo sapiens, UniProt Q04759)
# UniProt Q04759, sequence (whole entry, looked up): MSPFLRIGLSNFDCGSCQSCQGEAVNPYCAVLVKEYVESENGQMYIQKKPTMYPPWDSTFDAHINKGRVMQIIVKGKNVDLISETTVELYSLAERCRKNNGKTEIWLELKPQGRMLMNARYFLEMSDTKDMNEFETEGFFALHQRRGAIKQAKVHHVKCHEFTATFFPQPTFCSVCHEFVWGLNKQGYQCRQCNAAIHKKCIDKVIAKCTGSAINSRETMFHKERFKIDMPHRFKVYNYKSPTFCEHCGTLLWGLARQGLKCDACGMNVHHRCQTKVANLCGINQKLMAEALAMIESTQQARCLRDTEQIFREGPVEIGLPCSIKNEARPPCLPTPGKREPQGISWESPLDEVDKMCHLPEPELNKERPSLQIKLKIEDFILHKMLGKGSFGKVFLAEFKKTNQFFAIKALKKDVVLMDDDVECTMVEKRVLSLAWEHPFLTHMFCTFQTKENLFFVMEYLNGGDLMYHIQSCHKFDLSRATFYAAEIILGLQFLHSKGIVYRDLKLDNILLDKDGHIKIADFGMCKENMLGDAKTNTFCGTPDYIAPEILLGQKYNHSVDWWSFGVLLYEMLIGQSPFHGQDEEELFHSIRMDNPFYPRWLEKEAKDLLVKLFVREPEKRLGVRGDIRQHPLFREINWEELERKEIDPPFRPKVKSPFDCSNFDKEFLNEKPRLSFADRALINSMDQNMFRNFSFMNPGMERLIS
SMILES,remaining activity [%]
Cn1sc(=O)n(Cc2ccccc2)c1=O,100
COc1ccc(CNC(=O)Nc2ncc([N+](=O)[O-])s2)cc1,96.9
O=C1NC(=O)C(c2cn(CCCn3ccnc3)c3ccccc23)=C1Nc1ccccc1,37.2
Nc1ccc2ncnc(NCCc3ccc(Oc4ccccc4)cc3)c2c1,108
Cn1c2ccccc2c2c3c(c4c5ccccc5n(CCC#N)c4c21)CNC3=O,76.3
NCCNc1ncc(C(N)=O)c(Nc2cccc(C(F)(F)F)c2)n1,109
O=C1NC(=O)C(c2cn(CCCO)c3ncccc23)=C1c1cnccn1,81.7
COc1ccc(C(=O)Nc2sc3c(c2C(N)=O)CCCC3)cc1OC,97.5
O=c1c2ccccc2[nH]c(=S)n1CCN1CCC(=C(c2ccc(F)cc2)c2ccc(F)cc2)CC1,92.2
O=C(Nc1cccc(Nc2cc(Nc3cccc(C(F)(F)F)c3)ncn2)c1)C1CC1,87.8
CN(C)c1ccc(C=C2C(=O)Nc3ccccc32)cc1,104
Oc1ccc(-c2nc(-c3ccncc3)c(-c3ccc(F)cc3)[nH]2)cc1,115
Cc1ccc(NC(=O)c2ccc(CN3CCN(C)CC3)cc2)cc1Nc1nc(-c2cccnc2)cs1,103
Cc1ccc(Nc2nccc(N(C)c3ccc4c(C)n(C)nc4c3)n2)cc1S(N)(=O)=O,93.1
O=C(O)c1ccc2c3c1cccc3c(=O)n1c3ccccc3nc21,117
COc1cc2nccc(Oc3ccc(NC(=S)NC(=O)c4ccccc4C)cc3)c2cc1OC,107

# Set 3 — effect on: enzyme activity; mode: inhibitor; tested at: 77 µM; relative to: untreated
# Target: DNA polymerase theta, ATPase domain (POLQ, Homo sapiens, UniProt O75417)
# UniProt O75417, sequence (whole entry, unmodified, looked up): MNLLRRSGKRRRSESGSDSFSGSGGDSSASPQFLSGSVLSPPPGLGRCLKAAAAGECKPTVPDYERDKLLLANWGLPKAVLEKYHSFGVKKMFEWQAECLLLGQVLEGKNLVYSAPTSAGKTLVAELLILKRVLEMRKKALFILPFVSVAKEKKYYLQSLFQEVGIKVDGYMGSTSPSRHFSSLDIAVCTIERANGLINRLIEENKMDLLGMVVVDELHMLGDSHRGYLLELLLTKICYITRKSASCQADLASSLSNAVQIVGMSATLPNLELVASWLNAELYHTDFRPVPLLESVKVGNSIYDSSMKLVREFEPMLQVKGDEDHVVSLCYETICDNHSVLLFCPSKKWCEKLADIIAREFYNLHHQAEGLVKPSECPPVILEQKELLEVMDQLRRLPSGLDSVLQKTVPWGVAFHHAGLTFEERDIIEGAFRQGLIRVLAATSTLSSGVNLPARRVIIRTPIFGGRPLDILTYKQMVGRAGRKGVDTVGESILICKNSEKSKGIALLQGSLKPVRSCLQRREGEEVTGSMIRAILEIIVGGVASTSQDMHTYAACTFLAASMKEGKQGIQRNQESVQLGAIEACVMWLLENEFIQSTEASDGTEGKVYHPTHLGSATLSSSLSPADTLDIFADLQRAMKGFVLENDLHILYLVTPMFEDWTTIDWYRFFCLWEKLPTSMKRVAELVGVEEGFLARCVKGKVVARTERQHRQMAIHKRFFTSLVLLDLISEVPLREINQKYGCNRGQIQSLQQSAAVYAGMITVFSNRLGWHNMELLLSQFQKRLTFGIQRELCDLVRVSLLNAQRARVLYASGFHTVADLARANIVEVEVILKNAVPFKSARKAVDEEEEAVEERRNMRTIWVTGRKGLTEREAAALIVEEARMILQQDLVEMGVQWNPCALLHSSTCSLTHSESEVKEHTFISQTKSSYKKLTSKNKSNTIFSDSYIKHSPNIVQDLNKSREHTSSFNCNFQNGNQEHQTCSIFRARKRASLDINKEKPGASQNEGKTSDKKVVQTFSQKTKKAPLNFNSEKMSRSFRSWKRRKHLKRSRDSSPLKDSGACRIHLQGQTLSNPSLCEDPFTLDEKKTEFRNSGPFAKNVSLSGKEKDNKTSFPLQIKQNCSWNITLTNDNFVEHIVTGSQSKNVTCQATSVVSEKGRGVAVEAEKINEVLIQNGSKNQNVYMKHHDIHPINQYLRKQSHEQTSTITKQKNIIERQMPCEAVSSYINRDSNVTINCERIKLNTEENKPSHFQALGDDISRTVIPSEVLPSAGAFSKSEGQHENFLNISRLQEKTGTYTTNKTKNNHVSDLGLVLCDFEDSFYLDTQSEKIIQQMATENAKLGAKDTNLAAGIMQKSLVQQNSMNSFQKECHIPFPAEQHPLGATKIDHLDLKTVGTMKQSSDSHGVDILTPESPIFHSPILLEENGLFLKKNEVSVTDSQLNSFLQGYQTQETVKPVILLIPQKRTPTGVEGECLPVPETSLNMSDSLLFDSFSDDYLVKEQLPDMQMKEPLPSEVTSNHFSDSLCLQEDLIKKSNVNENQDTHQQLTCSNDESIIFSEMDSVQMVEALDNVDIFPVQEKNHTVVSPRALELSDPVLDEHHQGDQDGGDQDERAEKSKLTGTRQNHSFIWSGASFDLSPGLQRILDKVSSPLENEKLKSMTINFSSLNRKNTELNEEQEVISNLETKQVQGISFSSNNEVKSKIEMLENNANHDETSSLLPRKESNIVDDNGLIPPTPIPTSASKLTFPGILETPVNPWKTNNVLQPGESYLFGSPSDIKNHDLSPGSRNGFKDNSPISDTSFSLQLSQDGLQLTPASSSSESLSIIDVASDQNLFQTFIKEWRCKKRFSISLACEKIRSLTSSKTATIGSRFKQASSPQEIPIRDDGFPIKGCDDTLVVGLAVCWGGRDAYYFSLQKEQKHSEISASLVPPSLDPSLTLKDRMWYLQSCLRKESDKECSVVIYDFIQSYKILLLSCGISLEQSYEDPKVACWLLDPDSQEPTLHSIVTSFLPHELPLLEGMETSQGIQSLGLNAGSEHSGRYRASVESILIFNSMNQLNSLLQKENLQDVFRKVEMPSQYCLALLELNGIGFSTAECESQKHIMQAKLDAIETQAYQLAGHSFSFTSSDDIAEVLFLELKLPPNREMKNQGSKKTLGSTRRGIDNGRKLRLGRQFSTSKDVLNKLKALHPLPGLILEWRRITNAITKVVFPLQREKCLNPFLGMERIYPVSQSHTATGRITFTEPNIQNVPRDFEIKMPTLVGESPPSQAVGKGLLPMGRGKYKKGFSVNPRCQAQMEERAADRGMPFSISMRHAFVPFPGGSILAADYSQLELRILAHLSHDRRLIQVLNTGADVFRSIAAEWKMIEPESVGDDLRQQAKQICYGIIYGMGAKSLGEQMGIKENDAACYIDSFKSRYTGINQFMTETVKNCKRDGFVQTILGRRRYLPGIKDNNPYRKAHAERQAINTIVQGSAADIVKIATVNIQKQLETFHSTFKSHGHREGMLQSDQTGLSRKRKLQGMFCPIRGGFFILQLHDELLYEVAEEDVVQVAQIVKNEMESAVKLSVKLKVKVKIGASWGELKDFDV
SMILES,remaining activity
CS(=O)(=O)c1ccc(-n2nc(C(F)(F)F)cc2-c2ccc(F)cc2)cc1,96%
Cc1cc(N2CCOCC2)cc2[nH]c(-c3c(NC[C@@H](O)c4cccc(Cl)c4)cc[nH]c3=O)nc12,98.3%
NCCCNCCCCNCCCN,101%
COc1cc2nccc(Oc3ccc(NC(=O)NC4CC4)c(Cl)c3)c2cc1C(N)=O,76.6%
Cc1c(OCC(F)(F)F)ccnc1C[S@@+]([O-])c1nc2ccccc2[nH]1,103%
C[C@@]12C(=O)OC(=O)[C@]1(C)[C@H]1CC[C@@H]2O1,93.8% and 95.5%
NC(CO)C(=O)NNCc1ccc(O)c(O)c1O (racemic),94.1%
COC(=O)[C@H]1[C@H]2C[C@H]3c4[nH]c5ccccc5c4CCN3C[C@@H]2CC[C@@H]1O,109%

# Set 4 — mode: antagonist
# Target: Beta-1 adrenergic receptor (ADRB1, Homo sapiens, UniProt P08588)
# UniProt P08588, sequence (whole entry, looked up): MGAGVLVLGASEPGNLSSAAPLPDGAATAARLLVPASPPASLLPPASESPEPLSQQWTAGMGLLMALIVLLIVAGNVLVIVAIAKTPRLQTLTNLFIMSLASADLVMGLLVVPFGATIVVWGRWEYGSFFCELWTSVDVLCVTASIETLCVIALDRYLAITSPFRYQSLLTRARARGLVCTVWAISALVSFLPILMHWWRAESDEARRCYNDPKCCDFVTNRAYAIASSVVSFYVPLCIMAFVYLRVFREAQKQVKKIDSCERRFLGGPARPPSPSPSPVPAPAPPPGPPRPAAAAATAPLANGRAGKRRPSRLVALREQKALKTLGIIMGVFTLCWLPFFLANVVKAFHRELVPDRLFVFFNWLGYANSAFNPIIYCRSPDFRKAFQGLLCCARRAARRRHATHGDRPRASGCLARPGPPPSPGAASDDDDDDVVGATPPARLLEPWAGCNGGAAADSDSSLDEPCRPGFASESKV
SMILES,IC50 [µM]
Cc1ccc2c(C(=O)N(C)C(C)C)cc(-c3cnc(C(C)C)nc3)nc2c1,≥ 100
Clc1cccc(Nc2cnc3ccc(N4CCOCC4)nn23)c1,≥ 100
CN1CCN(C)c2cc(-c3ccc(N4CCOCC4)cc3)ncc2C1,≥ 100
COc1cc2c3c(c1)C1(C(=O)N3C(C)(C)C=C2C)C(C#N)=C(N)Oc2cc(O)ccc21 (stereo not shown),≥ 100
COCCCNc1ncccc1-c1cc(-c2ccccc2)nc2c(C)noc12,≥ 100
O=c1cc(N2CCNCC2)nc2sc(C(F)(F)F)nn12,≥ 100
Clc1ccc2c(c1)N=C(N1CCNCC1)c1ccccc1N2,≥ 100

# A few entries again (set 2):
SMILES,remaining activity [%]
O=C(Nc1cccc(Nc2cc(Nc3cccc(C(F)(F)F)c3)ncn2)c1)C1CC1,87.8
O=C(O)c1ccc2c3c1cccc3c(=O)n1c3ccccc3nc21,117
NCCNc1ncc(C(N)=O)c(Nc2cccc(C(F)(F)F)c2)n1,109
O=c1c2ccccc2[nH]c(=S)n1CCN1CCC(=C(c2ccc(F)cc2)c2ccc(F)cc2)CC1,92.2
CN(C)c1ccc(C=C2C(=O)Nc3ccccc32)cc1,104
